Assay results pooled from the literature.
Each numbered part is a random draw from the data of one study; scales do not carry over between parts.
Chain of UniProt Q9H3N8 (whole entry, looked up): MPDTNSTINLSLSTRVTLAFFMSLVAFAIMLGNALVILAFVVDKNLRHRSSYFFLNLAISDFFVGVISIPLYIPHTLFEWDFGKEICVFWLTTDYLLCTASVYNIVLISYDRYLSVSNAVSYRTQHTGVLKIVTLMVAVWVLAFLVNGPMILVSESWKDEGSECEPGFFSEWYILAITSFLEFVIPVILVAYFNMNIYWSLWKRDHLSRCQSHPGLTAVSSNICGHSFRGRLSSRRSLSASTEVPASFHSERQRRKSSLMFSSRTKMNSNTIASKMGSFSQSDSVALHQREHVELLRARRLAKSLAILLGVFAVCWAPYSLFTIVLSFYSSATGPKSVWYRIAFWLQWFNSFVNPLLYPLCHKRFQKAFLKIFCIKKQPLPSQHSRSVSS
Chain of UniProt P18825 (whole entry, looked up): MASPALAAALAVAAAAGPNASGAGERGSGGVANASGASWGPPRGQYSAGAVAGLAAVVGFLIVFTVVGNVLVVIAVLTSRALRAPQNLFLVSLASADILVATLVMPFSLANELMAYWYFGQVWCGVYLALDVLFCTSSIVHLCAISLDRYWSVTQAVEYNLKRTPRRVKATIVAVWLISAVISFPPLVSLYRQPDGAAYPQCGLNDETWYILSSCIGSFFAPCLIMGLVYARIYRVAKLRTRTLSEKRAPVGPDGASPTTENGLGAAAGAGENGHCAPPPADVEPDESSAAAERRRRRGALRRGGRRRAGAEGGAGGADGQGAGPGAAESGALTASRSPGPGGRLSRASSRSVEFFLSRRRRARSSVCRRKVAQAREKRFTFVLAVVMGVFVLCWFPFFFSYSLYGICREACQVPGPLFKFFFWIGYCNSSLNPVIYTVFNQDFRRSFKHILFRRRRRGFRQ
Chain of UniProt P13945 (whole entry, looked up): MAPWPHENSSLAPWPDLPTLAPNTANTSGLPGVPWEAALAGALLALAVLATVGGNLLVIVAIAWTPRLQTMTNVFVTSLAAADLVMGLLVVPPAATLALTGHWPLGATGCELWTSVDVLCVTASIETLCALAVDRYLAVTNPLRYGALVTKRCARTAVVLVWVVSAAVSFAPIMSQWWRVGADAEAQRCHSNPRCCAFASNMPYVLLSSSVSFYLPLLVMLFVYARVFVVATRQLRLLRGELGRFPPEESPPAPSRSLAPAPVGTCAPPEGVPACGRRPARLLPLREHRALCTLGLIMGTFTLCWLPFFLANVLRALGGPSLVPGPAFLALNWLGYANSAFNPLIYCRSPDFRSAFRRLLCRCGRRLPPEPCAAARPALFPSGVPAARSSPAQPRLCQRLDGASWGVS
Chain of UniProt P34969 (whole entry, looked up): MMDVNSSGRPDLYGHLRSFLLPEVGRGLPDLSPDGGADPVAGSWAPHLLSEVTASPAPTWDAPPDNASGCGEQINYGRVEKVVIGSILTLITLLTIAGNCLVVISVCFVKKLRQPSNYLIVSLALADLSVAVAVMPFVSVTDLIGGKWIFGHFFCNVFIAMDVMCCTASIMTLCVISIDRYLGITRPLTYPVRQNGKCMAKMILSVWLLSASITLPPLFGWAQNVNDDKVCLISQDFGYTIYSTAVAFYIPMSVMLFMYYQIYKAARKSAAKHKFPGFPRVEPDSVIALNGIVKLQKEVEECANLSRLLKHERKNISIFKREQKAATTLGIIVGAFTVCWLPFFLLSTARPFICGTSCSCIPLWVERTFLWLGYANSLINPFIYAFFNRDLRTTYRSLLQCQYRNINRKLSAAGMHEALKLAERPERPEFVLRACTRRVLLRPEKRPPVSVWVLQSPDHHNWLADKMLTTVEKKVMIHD
Chain of UniProt P08173 (whole entry, looked up): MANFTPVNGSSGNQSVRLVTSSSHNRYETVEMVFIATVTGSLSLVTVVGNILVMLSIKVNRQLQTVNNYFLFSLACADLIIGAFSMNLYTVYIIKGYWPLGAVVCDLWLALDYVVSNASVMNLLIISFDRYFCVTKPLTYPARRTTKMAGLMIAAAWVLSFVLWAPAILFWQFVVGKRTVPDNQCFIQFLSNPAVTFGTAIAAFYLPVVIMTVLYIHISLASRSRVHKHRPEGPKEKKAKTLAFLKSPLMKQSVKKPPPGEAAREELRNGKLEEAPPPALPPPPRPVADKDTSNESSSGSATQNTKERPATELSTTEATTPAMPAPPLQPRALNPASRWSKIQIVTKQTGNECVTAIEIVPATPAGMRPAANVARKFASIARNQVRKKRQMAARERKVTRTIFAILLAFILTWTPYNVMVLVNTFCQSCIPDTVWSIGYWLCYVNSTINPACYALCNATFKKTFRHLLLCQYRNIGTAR

Sample 1
Host: mouse
Medium: microsomes or S9
Tested at: 2 µM
Time: 0.5 h
SMILES | remaining compound
CNC(=O)C1CCCC1NC(=O)N1CCOC(C)(c2cnn(C)c2)C1 (centres unmarked) | 87.8%
CCOc1ccccc1O[C@@H](c1ccccc1)[C@@H]1CNCCO1 | 32.6%
Cc1cc(C(=O)NC2CCCc3c2[nH]c2ccccc32)c2c(C)noc2n1 (centres unmarked) | 58.3%
Cc1ccc(Cl)c(OCC(O)Cn2cnc3cc(C)c(C)cc32)c1 (centres unmarked) | < 1%
COc1ccc(-n2nc([S+](C)[O-])c(-n3ccnc3)c2-c2ccc(Cl)c(Cl)c2)cc1 (centres unmarked) | 16.7%
CCOC(=O)c1c(-c2ccccc2)n(C#Cc2ccccc2F)c2ccccc12 | 62.7%
Cc1cc(C)c2c(n1)oc1c(N3CCN(C(=O)c4ccco4)CC3)ncnc12 | 3.96%
CCc1cnc(N2CCN(C)C(C(=O)O)C2)nc1 (centres unmarked) | > 99%
CC(C)Oc1ccc(CNC(=O)NC2CCCCNC2=O)cn1 (centres unmarked) | > 100%

Sample 2
Target: DNA polymerase theta, ATPase domain (POLQ, Homo sapiens, UniProt O75417)
Chain of UniProt O75417 (whole entry, unmodified, looked up): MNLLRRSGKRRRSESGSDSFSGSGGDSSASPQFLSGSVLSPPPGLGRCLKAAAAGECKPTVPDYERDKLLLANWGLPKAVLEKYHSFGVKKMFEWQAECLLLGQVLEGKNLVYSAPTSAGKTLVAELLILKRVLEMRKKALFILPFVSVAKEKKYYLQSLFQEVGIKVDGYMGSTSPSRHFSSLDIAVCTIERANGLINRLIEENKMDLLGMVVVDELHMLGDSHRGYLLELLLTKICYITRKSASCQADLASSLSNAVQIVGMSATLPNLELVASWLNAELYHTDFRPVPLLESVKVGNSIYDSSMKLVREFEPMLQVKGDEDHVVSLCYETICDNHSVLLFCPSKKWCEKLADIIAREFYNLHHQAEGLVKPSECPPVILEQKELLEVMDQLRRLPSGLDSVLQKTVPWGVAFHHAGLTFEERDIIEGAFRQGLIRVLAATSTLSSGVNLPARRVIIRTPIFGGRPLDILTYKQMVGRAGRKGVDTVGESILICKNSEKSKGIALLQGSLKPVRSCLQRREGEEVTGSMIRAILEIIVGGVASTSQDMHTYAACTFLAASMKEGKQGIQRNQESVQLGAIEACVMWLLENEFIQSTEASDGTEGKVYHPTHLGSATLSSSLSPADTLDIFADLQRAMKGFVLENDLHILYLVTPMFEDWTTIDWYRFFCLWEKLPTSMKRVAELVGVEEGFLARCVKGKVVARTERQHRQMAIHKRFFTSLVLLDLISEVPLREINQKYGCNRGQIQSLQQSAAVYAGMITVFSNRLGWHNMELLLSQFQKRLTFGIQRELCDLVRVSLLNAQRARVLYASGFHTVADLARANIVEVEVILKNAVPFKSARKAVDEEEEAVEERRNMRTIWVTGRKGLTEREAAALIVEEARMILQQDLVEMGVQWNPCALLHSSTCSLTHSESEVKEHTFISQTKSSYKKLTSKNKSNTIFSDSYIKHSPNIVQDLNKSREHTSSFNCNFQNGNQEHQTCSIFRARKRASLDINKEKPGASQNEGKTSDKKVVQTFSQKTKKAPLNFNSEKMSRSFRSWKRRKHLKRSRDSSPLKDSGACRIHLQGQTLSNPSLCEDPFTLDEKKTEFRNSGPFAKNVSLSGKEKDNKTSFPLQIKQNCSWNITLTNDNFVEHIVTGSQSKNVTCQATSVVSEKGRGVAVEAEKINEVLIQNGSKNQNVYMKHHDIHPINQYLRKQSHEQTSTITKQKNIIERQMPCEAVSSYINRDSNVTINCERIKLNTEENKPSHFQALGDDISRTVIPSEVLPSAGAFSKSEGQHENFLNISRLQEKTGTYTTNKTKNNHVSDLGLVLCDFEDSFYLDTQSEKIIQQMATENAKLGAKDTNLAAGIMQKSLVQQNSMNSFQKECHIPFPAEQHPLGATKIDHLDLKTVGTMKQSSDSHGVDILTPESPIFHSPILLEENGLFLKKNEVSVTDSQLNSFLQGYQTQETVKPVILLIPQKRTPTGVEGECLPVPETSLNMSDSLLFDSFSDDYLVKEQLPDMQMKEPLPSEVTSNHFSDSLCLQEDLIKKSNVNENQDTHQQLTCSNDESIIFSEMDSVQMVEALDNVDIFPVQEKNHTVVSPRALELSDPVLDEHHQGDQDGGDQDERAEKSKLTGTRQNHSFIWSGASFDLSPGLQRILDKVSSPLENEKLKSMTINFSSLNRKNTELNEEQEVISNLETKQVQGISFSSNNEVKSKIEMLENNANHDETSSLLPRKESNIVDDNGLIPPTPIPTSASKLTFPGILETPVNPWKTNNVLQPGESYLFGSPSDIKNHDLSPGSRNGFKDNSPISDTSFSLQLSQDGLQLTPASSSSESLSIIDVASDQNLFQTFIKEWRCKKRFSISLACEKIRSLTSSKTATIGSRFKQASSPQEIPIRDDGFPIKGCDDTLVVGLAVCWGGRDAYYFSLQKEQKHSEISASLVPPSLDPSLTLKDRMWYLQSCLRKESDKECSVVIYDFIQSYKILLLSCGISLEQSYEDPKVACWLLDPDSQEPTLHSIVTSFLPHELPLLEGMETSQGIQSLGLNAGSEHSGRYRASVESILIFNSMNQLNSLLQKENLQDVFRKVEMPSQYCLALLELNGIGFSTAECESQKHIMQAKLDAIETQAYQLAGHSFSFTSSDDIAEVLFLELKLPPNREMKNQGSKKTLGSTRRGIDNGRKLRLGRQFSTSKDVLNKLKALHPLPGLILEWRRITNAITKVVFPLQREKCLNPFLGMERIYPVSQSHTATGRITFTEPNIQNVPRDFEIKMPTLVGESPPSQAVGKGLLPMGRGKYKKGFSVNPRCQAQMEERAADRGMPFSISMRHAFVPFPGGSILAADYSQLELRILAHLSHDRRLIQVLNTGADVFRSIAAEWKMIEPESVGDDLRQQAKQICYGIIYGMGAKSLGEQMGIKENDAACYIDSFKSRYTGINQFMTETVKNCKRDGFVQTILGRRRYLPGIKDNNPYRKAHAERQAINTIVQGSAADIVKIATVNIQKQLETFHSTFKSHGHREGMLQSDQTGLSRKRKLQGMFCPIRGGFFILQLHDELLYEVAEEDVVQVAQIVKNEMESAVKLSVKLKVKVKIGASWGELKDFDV
Read-out: enzyme activity
Mode: inhibitor
Tested at: 77 µM
Relative to: untreated
SMILES | remaining activity [%]
CC(N)=NCCCC[C@@H](N)C(=O)O | 98.2
CCOC(=O)[C@H](CCc1ccccc1)N[C@@H](C)C(=O)N1[C@H](C(=O)O)C[C@H]2CCCC[C@@H]21 | 101
Nc1nc(O)c2ncn(CCC(CO)CO)c2n1 | 100
Cc1cc(O)c2c(c1)C(=O)c1cccc(O)c1C2=O | 101
CN=c1nc(-c2ccccc2)n(-c2ccccc2)s1 | 100

Sample 3
Structure (SMILES): O=C(O)[C@@H]1[C@@H](Cn2nnc3ccccc3c2=O)CC[C@H]1C(=O)c1ccc(OCCC2CCOCC2)cc1
Read-out: binding
Method: radioligand binding
Tested at: 10 µM
target | inhibition [%]
ADRA2B (Homo sapiens, UniProt P18089) | 8.62
HTR7 (Homo sapiens, UniProt P34969) | -2.99
HRH1 (Homo sapiens, UniProt P35367) | 1.6
HRH2 (Homo sapiens, UniProt P25021) | 17.5
HTR5A (Homo sapiens, UniProt P47898) | 1.33
ADRA1D (Homo sapiens, UniProt P25100) | 0.08
ADRB3 (Homo sapiens, UniProt P13945) | -31.9
ADRA2C (Homo sapiens, UniProt P18825) | 13.1
HRH4 (Homo sapiens, UniProt Q9H3N8) | 3.39
DRD1 (Homo sapiens, UniProt P21728) | 4.76
CHRM2 (Homo sapiens, UniProt P08172) | -2.32
ADRA1B (Homo sapiens, UniProt P35368) | 6.29
HTR3A (Homo sapiens, UniProt P46098) | -12.4
CHRM4 (Homo sapiens, UniProt P08173) | -7.11

Further values, each from its own experiment
Structure (SMILES) | target | assay | setting | endpoint | result
CC(C)S(=O)(=O)c1cc2c(Nc3ccc4sc(C5CCCC5)nc4c3)ccnc2cc1OCCO | Receptor-interacting serine/threonine-protein kinase 3 (RIPK3, Homo sapiens, UniProt Q9Y572) | kinase activity, inhibitor, ADP-Glo | 18.75 nM, 1 h | inhibition | 60.6%
